Results of several laboratories.
Protocols differ between the studies behind these lines. ± marks the error that the study gave.
B1: enzyme A497K (Streptomyces platensis, UniProt A0A0A0V031); chain MQHTTIGDVLREHRRSHPGRTALVDGPVRLTWPELDDRVNRLAGSLAASGIGRGDRIMWLGQNSFRVYELIAAAGKLGAMVCVGYWRWAPPEMEFALRDFDPHLVVWQHQEIHETVARTREALGSDDTARWLRHDSAPQDPDGYEAFLAAGGLADPDLDIDPDSPVLVLYTAAMSGRQCGSLLSHTNLIAMATAAAWLGDIDHTTAFLNSGPMFHIGNHQFWGMPTLLMAGKNVIVRRVVAEEVRDLLVAEECTHAFLMPPTVAEIVRLNRDTGHDLSRLRATVAPHLWEGMATTDTSRFTRSGAAAGRGYGQTELSGFAVTAAYGGPAAGNAGRPGPGLTVRVLDTAGRECAVGEAGEICARGTVVHRGYWNRDEVNAHRFRSGWWHTTDLGRREPDGSLTFLGTTTRMLKSAAENIFPAEVENCIEQHPAVREAAVIGVPNTRWAQDVKAVVVLEPDAGVSEQEIIDHCRPRIASYKKPKSVAFAAALPRTVSGKRDYDALDKEYGGGGYPGAATLGPGR
Chain of UniProt P21729 (whole entry, looked up): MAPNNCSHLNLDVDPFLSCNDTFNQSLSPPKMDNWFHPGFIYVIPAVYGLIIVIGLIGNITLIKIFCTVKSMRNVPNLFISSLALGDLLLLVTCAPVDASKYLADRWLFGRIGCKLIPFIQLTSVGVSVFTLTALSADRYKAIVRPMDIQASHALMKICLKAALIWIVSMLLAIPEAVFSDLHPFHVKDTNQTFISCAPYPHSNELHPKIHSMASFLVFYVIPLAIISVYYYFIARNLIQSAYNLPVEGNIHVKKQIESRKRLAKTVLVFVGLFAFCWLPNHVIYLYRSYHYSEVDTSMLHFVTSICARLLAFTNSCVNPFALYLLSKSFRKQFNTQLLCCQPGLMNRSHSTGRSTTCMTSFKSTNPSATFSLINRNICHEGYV

O=C(O)CC[C@H](NC(=O)N[C@@H](CCCCNC(=O)[C@H](Cc1ccc2ccccc2c1)NC(=O)[C@H]1CC[C@H](CNC(=O)CNC(=O)CNC(=O)CNC(=O)CN2CCN(CC(=O)O)CCN(C(CCC(=O)NCCC[P+](c3ccccc3)(c3ccccc3)c3ccccc3)C(=O)O)CCN(CC(=O)O)CC2)CC1)C(=O)O)C(=O)O (stereo partly drawn) [terbium-161 labelled]  intact radiocomplex (radio-HPLC; tumour-bearing mice, plasma; iv, 5 MBq, 10 min): 97.1 ± 4.4%
CCCC[C@H](NC(=O)CNC(=O)CNC(=O)c1ccc(NN)nc1)C(=O)N[C@H]1CC(=O)NCCCC[C@@H](C(N)=O)NC(=O)[C@H](Cc2c[nH]c3ccccc23)NC(=O)[C@H](CCCNC(=N)N)NC(=O)[C@@H](Cc2ccccc2)NC(=O)[C@H](Cc2c[nH]cn2)NC1=O [technetium-99m labelled]  uptake ratio (C57 mouse, B16/F1 melanoma; 2 h, together with: NDP-MSH blockade; reference: tumour over muscle): 15
N=C(N)NCCC[C@@H]1NC(=O)[C@H](CCCCNC(=O)CNC(=O)CNC(=O)CNC(=O)CC[C@H](NC(=O)CCOCCOCCOCCOCCNC(=O)CC[C@H](NC(=O)CN2CCN(CC(=O)O)CCN(CC(=O)O)CCN(CC(=O)O)CC2)C(=O)NCCOCCOCCOCCOCCC(=O)N[C@@H](CCC(=O)NCC(=O)NCC(=O)NCC(=O)NCCCC[C@@H]2NC(=O)[C@@H](Cc3ccccc3)NC(=O)[C@H](CC(=O)O)NC(=O)CNC(=O)[C@H](CCCNC(=N)N)NC2=O)C(=O)NCC(=O)NCC(=O)NCC(=O)NCCCC[C@@H]2NC(=O)[C@@H](Cc3ccccc3)NC(=O)[C@H](CC(=O)O)NC(=O)CNC(=O)[C@H](CCCNC(=N)N)NC2=O)C(=O)NCC(=O)NCC(=O)NCC(=O)NCCCC[C@@H]2NC(=O)[C@@H](Cc3ccccc3)NC(=O)[C@H](CC(=O)O)NC(=O)CNC(=O)[C@H](CCCNC(=N)N)NC2=O)NC(=O)[C@@H](Cc2ccccc2)NC(=O)[C@H](CC(=O)O)NC(=O)CNC1=O [indium-111 labelled]  tissue uptake (female athymic nude mice, heart; intravenous, 3 µCi, 24 h, U-87 MG glioma xenograft): 0.26 %ID/g
CCCNC(=O)[C@H](CC(C)C)NC(=O)[C@H](Cc1c[nH]cn1)NC(=O)CNC(=O)[C@@H](NC(=O)[C@H](C)NC(=O)[C@H](Cc1c[nH]c2ccccc12)NC(=O)[C@H](CCC(N)=O)NC(=O)[C@@H](Cc1ccccc1)NC(=O)CCCCCNC(=O)CN1CCN(CC(=O)O)CCN(CC(=O)O)CCN(CC(=O)O)CC1)C(C)C [indium-111 labelled]  tissue uptake (Gastrin-releasing peptide receptor (Mus musculus, UniProt P21729); biodistribution; CF-1 mice, lung; intravenous, 1 h, unblocked): 1.37 ± 0.08 %ID/g
C=Cc1c(C)c2cc3nc(c4c5[nH]c(cc6nc(cc1[nH]2)C(C)=C6CC)c(C)c5C(=O)C4)[C@@H](CCC(=O)NCC(=O)N1CCC[C@H]1C(=O)N[C@@H](CC(C)C)C(=O)NCC(=O)N[C@@H](Cc1ccccc1)C(=O)N[C@@H](CCCNC(=N)N)C(=O)N[C@H](C(=O)NCC(=O)N[C@@H](CCCCN)C(N)=O)C(C)C)[C@@H]3C  mean fluorescence intensity (OA patient synovial fibroblasts; flow cytometry; 1 µM, 1 h; reference: untreated): 14 ± 5 fold
N=C(N)NCCC[C@@H]1NC(=O)[C@H](CCCCNC(=O)CCOCCOCCOCCOCCNC(=O)CN2CCN(CC(=O)O)CCN(CC(=O)O)CCN(CC(=O)O)CC2)NC(=O)[C@@H](Cc2ccccc2)NC(=O)[C@H](CC(=O)O)NC(=O)CNC1=O [indium-111 labelled]  tissue uptake (female athymic nude mice, intestine; intravenous, 3 µCi, 1 h, U-87 MG glioma xenograft): 1.24 ± 0.09 %ID/g
B1 (enzyme A497K)  Km (C[C@@]12CCC[C@@](C)(C(=O)OP(=O)(O)OC[C@H]3O[C@@H](n4cnc5c(N)ncnc54)[C@H](O)[C@@H]3O)[C@H]1C[C@@H](O)[C@]13C[C@H]4C[C@H](O[C@@]4(C)C1)[C@@H]23; steady-state kinetics; pH 7.8, 25 °C): 1.6 µM
CCCC[C@H](NC(=O)CCCCCCCNC(=O)c1ccc(NN)nc1)C(=O)N[C@H]1CC(=O)NCCCC[C@@H](C(N)=O)NC(=O)[C@H](Cc2c[nH]c3ccccc23)NC(=O)[C@H](CCCNC(=N)N)NC(=O)[C@@H](Cc2ccccc2)NC(=O)[C@H](Cc2c[nH]cn2)NC1=O [technetium-99m labelled]  uptake (C57 mouse, B16/F1 melanoma, pancreas; intravenous, 0.5 h): 0.97 ± 0.4 %ID/g
N=C(N)NCCC[C@@H]1NC(=O)[C@H](CCCCNC(=O)CCOCCOCCOCCOCCNC(=O)CC[C@H](NC(=O)CCOCCOCCOCCOCCNC(=O)CC[C@H](NC(=O)CN2CCN(CC(=O)O)CCN(CC(=O)O)CCN(CC(=O)O)CC2)C(=O)NCCOCCOCCOCCOCCC(=O)N[C@@H](CCC(=O)NCCOCCOCCOCCOCCC(=O)NCCCC[C@@H]2NC(=O)[C@@H](Cc3ccccc3)NC(=O)[C@H](CC(=O)O)NC(=O)CNC(=O)[C@H](CCCNC(=N)N)NC2=O)C(=O)NCCOCCOCCOCCOCCC(=O)NCCCC[C@@H]2NC(=O)[C@@H](Cc3ccccc3)NC(=O)[C@H](CC(=O)O)NC(=O)CNC(=O)[C@H](CCCNC(=N)N)NC2=O)C(=O)NCCOCCOCCOCCOCCC(=O)NCCCC[C@@H]2NC(=O)[C@@H](Cc3ccccc3)NC(=O)[C@H](CC(=O)O)NC(=O)CNC(=O)[C@H](CCCNC(=N)N)NC2=O)NC(=O)[C@@H](Cc2ccccc2)NC(=O)[C@H](CC(=O)O)NC(=O)CNC1=O [indium-111 labelled]  tumour to tissue ratio (athymic nude mice, female, U-87 MG glioma xenograft, tumour and liver; intravenous, 24 h; reference: tumour over liver): 3.24 ± 1.02
CC[C@H](C)[C@H](NC(=O)[C@H](CCN)NC(=O)CCCCCCCCCCCNC(=O)CCCCCOC(=O)c1cn(C2CC2)c2cc(N3CCNCC3)c(F)cc2c1=O)C(=O)N[C@@H](CCN)C(=O)N[C@H](Cc1ccccc1)C(=O)N[C@@H](CC(C)C)C(=O)N[C@@H](CCN)C(=O)N[C@@H](C(=O)N[C@@H](CC(C)C)C(=O)N[C@@H](CO)C(N)=O)C(C)C  viability (BEAS-2B; MTT; 50 µM, 24 h): > 90%
N=C(N)NCCC[C@@H]1NC(=O)[C@H](CCCCNC(=O)CC[C@H](NC(=O)CCOCCOCCOCCOCCNC(=O)CN2CCN(CC(=O)O)CCN(CC(=O)O)CCN(CC(=O)O)CC2)C(=O)NCCCC[C@@H]2NC(=O)[C@@H](Cc3ccccc3)NC(=O)[C@H](CC(=O)O)NC(=O)CNC(=O)[C@H](CCCNC(=N)N)NC2=O)NC(=O)[C@@H](Cc2ccccc2)NC(=O)[C@H](CC(=O)O)NC(=O)CNC1=O [indium-111 labelled]  tissue uptake (female athymic nude mice, blood; intravenous, 3 µCi, 72 h, U-87 MG glioma xenograft): 0.03 ± 0.01 %ID/g
CC(C)C[C@H](NC(=O)[C@@H]1CCCN1C(=O)[C@H](CCCCN)NC(=O)[C@@H](N)CO)C(=O)N1CCC[C@H]1C(=O)N[C@@H](CCC(=O)O)C(=O)N[C@H](C(=O)N[C@H](C(=O)N[C@@H](CC(=O)O)C(=O)N[C@@H](CCC(=O)O)C(=O)N[C@@H](Cc1ccc(O)cc1)C(=O)N[C@@H](Cc1cn(CCOCCOCCOCCNC(=O)CCc2ccc(O)c(CN(CCN(CC(=O)O)Cc3cc(CCC(=O)NCCCC[C@H](NC(=O)N[C@@H](CCC(=O)O)C(=O)O)C(=O)O)ccc3O)CC(=O)O)c2)nn1)C(=O)O)[C@@H](C)O)C(C)C [gallium-68 labelled]  SUV (NMRI nu/nu mouse, LNCaP xenograft, brown adipose tissue; 135.34 nmol/kg, low molar activity): 0.06 g/g
